Assay results gathered from unrelated publications.
Numbered parts are unrelated; each lists some results of a single study.

Series 1
Target: Histone acetyltransferase KAT6A, winged helix 2, GST fusion (KAT6A, Homo sapiens, UniProt Q92794, residues 85-181)
Technique: protein binding microarray
Molecule type: double-stranded DNA, one strand shown
Medium: in vitro
Tested at: not given
Setting: 8-mer, flanks averaged, mean of 2 arrays, mostly near background
Relative to: not given
Direction: higher = stronger binding
Construct (chain): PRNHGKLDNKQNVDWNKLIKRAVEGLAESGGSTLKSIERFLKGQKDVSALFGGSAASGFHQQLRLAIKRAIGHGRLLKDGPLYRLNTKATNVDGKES
With `GGCAATAA` the E-score was 0.0431.
`TATAGCAA` has an E-score of 0.085.
With `ATACGTGC` the E-score was -0.188.
`ATTTCGTC` has an E-score of 0.073.
`AACCAAAC` gave an E-score of -0.0507.
`AAATTGCA` has an E-score of 0.0813.
With `CTTTATTA` the E-score was 0.0938.
With `AACCTTGT` the E-score was -0.0691.

Series 2
Target: Replicase polyprotein 1ab, nsp13 helicase (rep, Severe acute respiratory syndrome coronavirus 2, UniProt P0DTD1)
Mode: inhibitor
Tested at: 20 µM
O=C(Oc1ccc([N+](=O)[O-])cc1)N1CCN(Cc2cccc(Oc3ccccc3)c2)CC1 has an inhibition of 7.49%.
The inhibition of C[C@@H](NC(=O)c1ncnc(N)c1Cl)c1ncc(C(=O)Nc2cc(C(F)(F)F)c(Cl)cn2)s1 is reported as 4.62%.
For NC(=O)N1c2ccccc2C=Cc2ccccc21, the inhibition was 5.56%.
For COCc1c(-c2ccc(NC(=O)Nc3cc(C(F)(F)F)ccc3F)c(F)c2)c2c(N)ncnn2c1CN1CCOCC1, the inhibition was -2.2%.
Oc1cc2c(cc1O)C(Cc1cccc3ccccc13)NCC2 (stereo not drawn) gave an inhibition of 13.8%.
With CC(C)[C@@H](N)C(=O)O the inhibition was 1.71%.
With O=C(O)c1cc(-c2ccc(F)cc2F)ccc1O the inhibition was 9.96%.
With Cc1cn(C[C@H](N)C(=O)O)c(=O)n(Cc2ccsc2C(=O)O)c1=O the inhibition was 0.88%.
For Cc1nnc(C[C@@H]2C=C(c3ccc(Cl)cc3)c3ccccc3-n3c(C)nnc32)o1, the inhibition was -0.42%.
With CN(C(=O)CN1C(=O)COc2cc(Cl)c(Cl)cc21)[C@@H](CN1CCCC1)c1ccc(-c2cccc(C(N)=O)c2)cc1 the inhibition was 11%.
For CC[N+](CC)(CC)CC(=O)Nc1c(C)cccc1C, the inhibition was 2.42%.
Nc1nccc(-c2ccc3noc(-c4ccc(Cl)cc4)c3c2)n1 has an inhibition of 11.1%.
CCCN(CCC)C(=O)C(CCC(=O)O)NC(=O)c1ccccc1 (stereo not drawn) has an inhibition of -4.55%.
Cc1ccc(S(=O)(=O)Cc2nc(-c3ccc(C(=O)NCc4cccnc4)cc3)oc2C)cc1 has an inhibition of 4.67%.
With O=C(c1c(O)c2ccc(Cl)cc2[nH]c1=O)C1CC1 the inhibition was 1.34%.
COc1ccnc(C[S+]([O-])c2nc3cc(OC(F)F)ccc3[nH]2)c1OC (stereo not drawn) gave an inhibition of -14.8%.
CCN(CC)C(=O)[C@]1(c2ccccc2)C[C@@H]1CN (racemic) gave an inhibition of 6.99%.
With O=C(CN1CCN(C(=O)c2ccco2)CC1)Nc1cc(C(F)(F)F)ccc1Cl the inhibition was 0.88%.
O=C(O)/C=C/c1ccc(-c2ccc(O)c(C34CC5CC(CC(C5)C3)C4)c2)cc1 has an inhibition of 15.7%.
CC(C)(C)Sc1c(CC(C)(C)C(=O)O)n(Cc2ccc(Cl)cc2)c2ccc(OCc3ccc4ccccc4n3)cc12 has an inhibition of 4.18%.
Cn1cc(C(=O)OCC2CCN(CCNS(C)(=O)=O)CC2)c2ccccc21 gave an inhibition of 4.57%.
CCc1cc2cc(OC)c(OC)cc2c(Cc2ccccc2)n1 has an inhibition of 0.24%.
The inhibition of NC(=O)CN1CC(c2ccccc2)CC1=O (stereo not drawn) is reported as -0.9%.
For O=C(/C=C/c1ccc(CN(CCO)CCc2c[nH]c3ccccc23)cc1)NO, the inhibition was 7.13%.
COC(=O)[C@H](NC(=O)c1cc(-c2ccccc2)nc2ccccc12)c1ccccc1 has an inhibition of 0.19%.

Series 3
Cell line: HEK-293T
Effect on: pseudovirus infection
Technique: FDA-approved drug library screen
Organism: VSV pseudotyped with SARS-CoV-2 spike
Tested at: 10 µM
Time: 16 h
Relative to: vehicle-treated
For CC1(C)O[C@@H]2C[C@H]3[C@@H]4CCC5=CC(=O)CC[C@]5(C)[C@@]4(F)[C@@H](O)C[C@]3(C)[C@]2(C(=O)CCl)O1, the GFP-positive cells was 73.4%.
The GFP-positive cells of Cn1cc[nH]c1=S is reported as 74.9%.
CS(=O)(=O)OCCCCOS(C)(=O)=O has a GFP-positive cells of 77.3%.
The GFP-positive cells of [H]/N=C(/N)N[C@H]1[C@H](O)[C@@H](O)[C@H](O[C@@H]2O[C@@H](C)[C@](O)(C=O)[C@H]2O[C@@H]2O[C@@H](CO)[C@H](O)[C@@H](O)[C@@H]2NC)[C@@H](N/C(N)=N\[H])[C@@H]1O is reported as 110%.
The GFP-positive cells of NC(=O)CC[C@H](N)C(=O)O is reported as 79.2%.
The GFP-positive cells of CO[C@@]1(NC(=O)CSCC#N)C(=O)N2C(C(=O)O)=C(CSc3nnnn3C)CS[C@@H]21 is reported as 87.7%.

Series 4
Target: Replicase polyprotein 1ab, main protease (rep, Severe acute respiratory syndrome coronavirus 2, UniProt P0DTD1)
Effect on: enzyme activity
Mode: inhibitor
Tested at: 20 µM
Setting: primary screen
Nc1nnc(Sc2ncc([N+](=O)[O-])s2)s1 has an inhibition of 99.9%.
O=C(O)CCCCCCCCCCCCCCc1ccc(I)cc1 gave an inhibition of 95%.
For CN[C@H](CC(C)C)C(=O)N[C@H]1C(=O)N[C@@H](CC(N)=O)C(=O)N[C@H]2C(=O)N[C@H]3C(=O)N[C@H](C(=O)N[C@H](C(=O)O)c4cc(O)cc(O)c4-c4cc3ccc4O)[C@H](O[C@H]3C[C@](C)(N)[C@@H](O)[C@H](C)O3)c3ccc(c(Cl)c3)Oc3cc2cc(c3O[C@@H]2O[C@H](CO)[C@@H](O)[C@H](O)[C@H]2O[C@H]2C[C@](C)(NCc3ccc(-c4ccc(Cl)cc4)cc3)[C@@H](O)[C@H](C)O2)Oc2ccc(cc2Cl)[C@H]1O, the inhibition was 50.1%.
For CCCCOc1ccc(C(=O)CCN2CCCCC2)cc1, the inhibition was 47%.
The inhibition of C[Se]CCC(N)C(=O)O (stereo not drawn) is reported as 46.1%.
O=C1C(Cl)=C(Cl)C(=O)C(Cl)=C1Cl has an inhibition of 101%.
The inhibition of CC1=C(/C=C/C(=C/C=C/C(C)=C/C(=O)O)c2ccc(C)cc2)C(C)(C)CCC1 is reported as 38%.

Series 5
Target: Sal-like protein 4, full length isoform A (SALL4, Homo sapiens, UniProt Q9UJQ4, residues 1-1053)
UniProt Q9UJQ4, sequence (whole entry, looked up): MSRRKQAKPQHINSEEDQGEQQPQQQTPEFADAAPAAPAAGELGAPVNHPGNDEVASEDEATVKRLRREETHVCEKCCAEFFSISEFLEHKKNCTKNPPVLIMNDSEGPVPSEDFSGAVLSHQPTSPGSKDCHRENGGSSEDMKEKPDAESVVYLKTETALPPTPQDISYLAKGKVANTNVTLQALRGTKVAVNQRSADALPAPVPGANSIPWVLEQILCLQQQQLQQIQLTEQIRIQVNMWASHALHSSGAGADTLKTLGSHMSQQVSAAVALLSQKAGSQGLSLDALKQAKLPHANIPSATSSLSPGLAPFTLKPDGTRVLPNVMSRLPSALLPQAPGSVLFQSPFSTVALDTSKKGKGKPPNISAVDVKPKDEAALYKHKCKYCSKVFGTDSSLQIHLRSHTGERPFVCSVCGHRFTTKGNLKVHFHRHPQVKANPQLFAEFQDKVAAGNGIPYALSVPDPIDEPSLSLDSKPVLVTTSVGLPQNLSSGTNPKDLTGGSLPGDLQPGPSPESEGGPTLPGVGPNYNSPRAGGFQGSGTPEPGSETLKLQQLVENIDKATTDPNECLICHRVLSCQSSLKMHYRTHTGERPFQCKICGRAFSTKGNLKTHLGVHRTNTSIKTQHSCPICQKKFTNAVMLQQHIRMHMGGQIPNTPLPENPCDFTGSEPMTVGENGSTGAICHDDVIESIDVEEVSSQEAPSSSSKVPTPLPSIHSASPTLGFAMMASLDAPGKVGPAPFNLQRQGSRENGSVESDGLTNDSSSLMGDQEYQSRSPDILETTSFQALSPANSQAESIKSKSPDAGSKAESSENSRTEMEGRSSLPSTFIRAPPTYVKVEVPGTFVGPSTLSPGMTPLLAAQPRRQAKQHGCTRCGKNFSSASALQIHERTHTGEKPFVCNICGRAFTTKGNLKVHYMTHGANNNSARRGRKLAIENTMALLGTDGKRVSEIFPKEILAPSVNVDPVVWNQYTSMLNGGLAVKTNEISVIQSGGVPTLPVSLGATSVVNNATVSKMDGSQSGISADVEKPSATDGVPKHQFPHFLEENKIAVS
Technique: universal PBM
Molecule type: double-stranded DNA, one strand shown
Medium: in vitro
Tested at: 600 nM
Setting: 8-mer, flanks averaged, mean of replicates
Direction: higher = stronger binding
`AATGTAAA` has an E-score of 0.297.
For `ACCTAGAC`, the E-score was -0.105.
The E-score of `ATTCGGCG` is reported as -0.152.
`CTATCGTC` has an E-score of -0.044.
For `CGAACATA`, the E-score was 0.233.
`AGAAGCCC` gave an E-score of -0.172.
With `ACTACCTG` the E-score was -0.131.
`ACTCCATC` gave an E-score of 0.00419.

For quick reference, copied from above (series 2):
For NC(=O)N1c2ccccc2C=Cc2ccccc21, the inhibition was 5.56%.
For COCc1c(-c2ccc(NC(=O)Nc3cc(C(F)(F)F)ccc3F)c(F)c2)c2c(N)ncnn2c1CN1CCOCC1, the inhibition was -2.2%.
Oc1cc2c(cc1O)C(Cc1cccc3ccccc13)NCC2 (stereo not drawn) gave an inhibition of 13.8%.
With CC(C)[C@@H](N)C(=O)O the inhibition was 1.71%.
With O=C(O)c1cc(-c2ccc(F)cc2F)ccc1O the inhibition was 9.96%.
With Cc1cn(C[C@H](N)C(=O)O)c(=O)n(Cc2ccsc2C(=O)O)c1=O the inhibition was 0.88%.
For Cc1nnc(C[C@@H]2C=C(c3ccc(Cl)cc3)c3ccccc3-n3c(C)nnc32)o1, the inhibition was -0.42%.
With CN(C(=O)CN1C(=O)COc2cc(Cl)c(Cl)cc21)[C@@H](CN1CCCC1)c1ccc(-c2cccc(C(N)=O)c2)cc1 the inhibition was 11%.
